Experimental data of several laboratories.
Every numbered part comes from another study and shows a few of its results, in no order.

Set 1
Target: Sal-like protein 4, full length isoform A (SALL4, Homo sapiens, UniProt Q9UJQ4, residues 1-1053)
UniProt Q9UJQ4, sequence (whole entry, looked up): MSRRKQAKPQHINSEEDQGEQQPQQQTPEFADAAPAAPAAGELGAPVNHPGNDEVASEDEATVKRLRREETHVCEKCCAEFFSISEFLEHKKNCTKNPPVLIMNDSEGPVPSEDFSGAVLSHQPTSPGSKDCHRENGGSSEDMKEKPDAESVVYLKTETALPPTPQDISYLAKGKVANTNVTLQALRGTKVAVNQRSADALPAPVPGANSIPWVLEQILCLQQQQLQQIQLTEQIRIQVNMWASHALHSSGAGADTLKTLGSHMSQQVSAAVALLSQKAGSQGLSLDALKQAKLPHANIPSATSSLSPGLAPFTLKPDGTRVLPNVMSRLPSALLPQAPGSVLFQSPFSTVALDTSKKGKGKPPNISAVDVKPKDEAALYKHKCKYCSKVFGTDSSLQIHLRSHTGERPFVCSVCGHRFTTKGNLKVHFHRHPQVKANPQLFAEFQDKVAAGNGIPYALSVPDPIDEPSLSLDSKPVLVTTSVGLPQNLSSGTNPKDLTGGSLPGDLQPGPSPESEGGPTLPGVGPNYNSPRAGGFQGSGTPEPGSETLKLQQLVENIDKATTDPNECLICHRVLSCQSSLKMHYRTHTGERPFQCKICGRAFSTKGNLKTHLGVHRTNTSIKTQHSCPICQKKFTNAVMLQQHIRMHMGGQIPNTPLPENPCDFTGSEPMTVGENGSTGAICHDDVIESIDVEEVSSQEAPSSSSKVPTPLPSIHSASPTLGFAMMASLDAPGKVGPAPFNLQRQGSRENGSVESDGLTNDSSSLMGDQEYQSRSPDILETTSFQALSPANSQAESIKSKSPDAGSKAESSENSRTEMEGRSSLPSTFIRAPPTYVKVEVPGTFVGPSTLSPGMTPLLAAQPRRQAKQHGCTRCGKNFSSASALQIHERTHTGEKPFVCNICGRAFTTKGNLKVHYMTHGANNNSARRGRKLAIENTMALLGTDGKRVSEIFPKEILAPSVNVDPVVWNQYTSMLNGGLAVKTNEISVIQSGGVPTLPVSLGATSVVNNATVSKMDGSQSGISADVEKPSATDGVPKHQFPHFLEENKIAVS
Method: universal PBM
Molecule type: double-stranded DNA, one strand shown
Medium: in vitro
Tested at: 600 nM
Notes: 8-mer, flanks averaged, mean of replicates
Direction: higher = stronger binding
| Sequence | E-score |
| --- | --- |
| AGGCCTCA | -0.207 |
| AAGCGGTA | -0.00147 |
| GCATCTCC | -0.222 |
| ACTACACG | 0.0188 |
| AACGAAAC | 0.0398 |
| GTCTGATA | 0.0748 |
| CGTTGGAC | -0.203 |
| AATGCAGA | 0.144 |
| ACCGCGAC | -0.201 |
| GACAATCA | 0.0647 |
| CGTGACAC | -0.0808 |
| GTCAGAAA | 0.0429 |
| CTCTGACA | 0.0715 |
| CCCCACCA | -0.218 |
| CCATCAAG | -0.1 |
| AAATAAGC | 0.21 |
| TATGGGGA | 0.0901 |
| TACGCCCA | -0.135 |
| ACGGAGGC | -0.327 |
| AACTTCCA | -0.034 |
| GGTAGACC | -0.199 |
| AACCCGGG | -0.302 |
| AGACTCTA | 0.0806 |
| CCTCCAGA | 0.0588 |
| AGGGCGCC | -0.351 |

Set 2
Target: Interferon regulatory factor 7, full length, phosphomimetic (IRF7, Homo sapiens, UniProt Q92985, residues 1-503, S101K/S471D/S472D/S475D/S476D/S477D/S483D/S484D/S487D)
Method: protein-binding microarray
Molecule type: double-stranded DNA, one strand shown
Medium: in vitro
Tested at: 250 nM
Notes: 60-bp whole probe
Together with: salmon DNA 0.4 mg/ml
Relative to: random background probes
Direction: higher = stronger binding
Shared flanks, not repeated: GCCTAGCAC … GTCTTGATTCGCTTGACGCTGCTG
Target sequence (chain): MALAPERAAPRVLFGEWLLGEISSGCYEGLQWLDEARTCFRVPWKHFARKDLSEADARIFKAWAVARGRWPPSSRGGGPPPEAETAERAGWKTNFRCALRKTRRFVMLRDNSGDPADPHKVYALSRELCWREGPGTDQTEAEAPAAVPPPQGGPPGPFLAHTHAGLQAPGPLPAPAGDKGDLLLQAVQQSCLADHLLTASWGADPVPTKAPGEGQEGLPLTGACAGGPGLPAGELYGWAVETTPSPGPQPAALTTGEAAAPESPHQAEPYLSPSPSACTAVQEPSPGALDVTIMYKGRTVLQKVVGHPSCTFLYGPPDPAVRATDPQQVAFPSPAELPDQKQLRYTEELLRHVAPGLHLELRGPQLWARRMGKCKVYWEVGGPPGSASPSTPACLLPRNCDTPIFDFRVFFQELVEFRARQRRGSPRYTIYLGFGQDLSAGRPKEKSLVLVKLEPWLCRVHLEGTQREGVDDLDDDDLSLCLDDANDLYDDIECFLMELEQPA
| Sequence | log fluorescence |
| --- | --- |
| TTAGGTATCCTTCTCCTTTAGTGCTAG | 0.502 z-score |
| GACGATTCCAGATTCGAGACGTGCTAG | 1.42 z-score |
| TCAGATCTCAGACTGGATTAGTGCTAG | 0.121 z-score |
| AAAACTAGGGCATTTAGAAAAGTGCTA | -0.129 z-score |
| CTAGAACTGAGTTTCGATTAGTGCTAG | 8.21 z-score |
| GACGGTATCGGACTGGGGACGTGCTAG | 0.0247 z-score |
| GACGGCTTCGGGACTGGGGACGTGCTA | -0.683 z-score |
| ATAGGTCTCGGTCTCGGTTAGTGCTAG | 2.76 z-score |
| GACGATCTCATTTTCGAGACGTGCTAG | 0.837 z-score |
| TCAGCTTCCTCTTTACTACTGTGCTAG | 0.452 z-score |
| GACGATCTCAGACTGGAAACGTGCTAG | -0.0447 z-score |
| GTAGAAAATTCATGTTATAAGTGCTAG | -0.0936 z-score |
| GATGGACTGGACACTGGGGACGTGCTA | -0.773 z-score |
| GACGGTATCGGGTATCAGGACGTGCTA | 0.192 z-score |
| TTAGGACTGTGGTATCGGTTAGTGCTA | 0.6 z-score |
| CTAGGTTTCGGTCTCGGTTAGTGCTAG | 8.87 z-score |
| TTAGATTTCAGAGTGGATTAGTGCTAG | -0.144 z-score |
| TTAGGACTGGGACTGGATTAGTGCTAG | -0.308 z-score |
| TTAGGTCTCCTTTTACTTTAGTGCTAG | 1.82 z-score |
| GACGGTTGCCTTATCCTGACGTGCTAG | -0.334 z-score |
| GACGGTTCCCTTTTCCTGATGTGCTAG | 2.69 z-score |
| GCCCTTATCCAATCAGAATTGTGCTAG | 0.781 z-score |

Set 3
Target: Prothrombin, mature alpha-thrombin (F2, Homo sapiens, UniProt P00734)
Method: aptamer microarray, sandwich
Molecule type: DNA with 2'F-ANA
Medium: in vitro
Tested at: 200 nM
Notes: whole 15-mer aptamer, many near background
Together with: Cy3 exosite-II aptamer, 400 nM
Direction: higher = stronger binding
Sequence: GGTTGGTGTGGTTGG
| Modification | mean fluorescence intensity [a.u.] |
| --- | --- |
| 2'F-ANA at 2 4 6 9 11 13 14 15 | 66.3 |
| 2'F-ANA at 2 4 7 9 11 13 14 | 87.5 |
| 2'F-ANA at 2 13 14 | 148 |
| 2'F-ANA at 2 3 4 6 9 10 11 14 15 | 173 |
| 2'F-ANA at 1 2 4 5 6 7 8 10 13 | 50.6 |
| 2'F-ANA at 2 3 4 6 7 8 13 14 15 | 267 |
| 2'F-ANA at 2 4 6 8 9 13 | 158 |
| 2'F-ANA at 1 2 3 5 8 9 11 | 70.9 |
| 2'F-ANA at 2 3 8 15 | 895 |
| 2'F-ANA at 1 4 5 6 7 9 12 14 | 46.3 |
| 2'F-ANA at 5 7 10 12 13 15 | 50.4 |
| 2'F-ANA at 2 3 5 6 12 14 15 | 54.3 |
| 2'F-ANA at 4 5 6 8 10 11 12 13 | 85.7 |
| 2'F-ANA at 2 3 11 12 13 14 15 | 395 |
| 2'F-ANA at 1 2 3 4 6 12 13 14 | 84.7 |
| 2'F-ANA at 2 4 6 7 9 11 13 | 151 |
| 2'F-ANA at 1 5 6 7 8 9 10 11 12 15 | 49.8 |
| 2'F-ANA at 1 2 3 4 5 7 8 10 12 15 | 51.3 |
| 2'F-ANA at 3 5 6 8 9 11 15 | 98.5 |

Set 4
Target: Histone acetyltransferase KAT6A, winged helix 2, GST fusion (KAT6A, Homo sapiens, UniProt Q92794, residues 85-181)
Method: protein binding microarray
Molecule type: double-stranded DNA, one strand shown
Medium: in vitro
Tested at: not given
Notes: 8-mer, flanks averaged, mean of 2 arrays, mostly near background
Relative to: not given
Direction: higher = stronger binding
Residues (chain): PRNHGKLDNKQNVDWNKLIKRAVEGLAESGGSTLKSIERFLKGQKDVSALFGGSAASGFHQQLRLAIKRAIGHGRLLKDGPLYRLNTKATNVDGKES
| Sequence | E-score |
| --- | --- |
| AGCGAGAT | 0.12 |
| CTCGTCGA | 0.0856 |
| AGCTCATC | -0.0865 |
| GCTGGAAC | 0.016 |
| AAAGCTGT | 0.0317 |
| GGCTGGTA | -0.0502 |
| ACCGGTGC | 0.00489 |
| ATCTCGGA | 0.168 |
| ATAATCGG | 0.0735 |
| CCTAAATA | -0.218 |
| GCGTAAAA | -0.0438 |
| AGAAGGAT | -0.131 |
| ATGGCAGG | 0.147 |
| AAGGAACG | -0.00951 |
| AACGCCAG | 0.222 |
| ATGCCCGA | -0.012 |
| CCCGCCAA | 0.173 |
| TAAAGTAA | -0.109 |
| GAACCGAA | 0.134 |
| GGACGTAC | -0.179 |
| CAATTCGA | -0.0712 |
| GGTTTGAA | 0.0805 |
| GGTTCGCA | 0.16 |
| CGTTCGTA | 0.0683 |
| ATGCCCTG | 0.0991 |
